Experimental data from different studies.
Numbered parts are unrelated; each lists some results of a single study. Substitutions count along the parent as printed.
UniProt P08588, sequence (whole entry, looked up): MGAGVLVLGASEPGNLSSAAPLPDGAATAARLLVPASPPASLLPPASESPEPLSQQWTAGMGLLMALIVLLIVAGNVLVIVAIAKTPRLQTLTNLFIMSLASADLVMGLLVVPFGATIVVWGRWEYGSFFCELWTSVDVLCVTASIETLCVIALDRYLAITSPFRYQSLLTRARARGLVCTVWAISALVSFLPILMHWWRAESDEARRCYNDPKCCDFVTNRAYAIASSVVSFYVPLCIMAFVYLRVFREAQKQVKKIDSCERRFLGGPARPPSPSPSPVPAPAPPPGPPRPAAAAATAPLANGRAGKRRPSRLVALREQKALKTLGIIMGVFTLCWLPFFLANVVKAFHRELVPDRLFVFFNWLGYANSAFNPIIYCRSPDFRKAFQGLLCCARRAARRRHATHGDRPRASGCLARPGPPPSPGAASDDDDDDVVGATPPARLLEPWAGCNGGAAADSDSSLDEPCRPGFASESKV
UniProt P9WI81, sequence (whole entry, looked up): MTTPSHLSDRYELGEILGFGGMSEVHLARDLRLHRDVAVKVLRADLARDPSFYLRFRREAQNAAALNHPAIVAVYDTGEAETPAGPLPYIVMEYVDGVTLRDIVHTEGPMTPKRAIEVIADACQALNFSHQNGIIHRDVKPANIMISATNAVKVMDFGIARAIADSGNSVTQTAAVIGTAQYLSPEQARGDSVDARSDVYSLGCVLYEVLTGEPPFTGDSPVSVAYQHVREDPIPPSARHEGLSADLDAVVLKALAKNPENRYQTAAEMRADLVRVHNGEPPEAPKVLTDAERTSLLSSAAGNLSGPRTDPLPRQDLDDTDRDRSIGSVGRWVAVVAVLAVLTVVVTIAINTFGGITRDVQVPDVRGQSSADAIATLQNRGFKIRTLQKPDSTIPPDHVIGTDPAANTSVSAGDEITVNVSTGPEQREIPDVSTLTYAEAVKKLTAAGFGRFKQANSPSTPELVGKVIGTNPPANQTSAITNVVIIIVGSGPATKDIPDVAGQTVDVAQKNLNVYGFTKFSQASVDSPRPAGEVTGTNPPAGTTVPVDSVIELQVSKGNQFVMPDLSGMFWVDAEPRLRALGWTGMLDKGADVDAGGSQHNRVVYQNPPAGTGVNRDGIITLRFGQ

Sample 1
Target: CCNB3, cyclin fold, Cln2 fusion (human)
Method: yeast growth competition, sequencing
Medium: yeast
Notes: strong parent motif
Relative to: not given
Reading: higher = stronger binding
Starting sequence: viral docking peptide; KGVKRKLFAEDSS; partner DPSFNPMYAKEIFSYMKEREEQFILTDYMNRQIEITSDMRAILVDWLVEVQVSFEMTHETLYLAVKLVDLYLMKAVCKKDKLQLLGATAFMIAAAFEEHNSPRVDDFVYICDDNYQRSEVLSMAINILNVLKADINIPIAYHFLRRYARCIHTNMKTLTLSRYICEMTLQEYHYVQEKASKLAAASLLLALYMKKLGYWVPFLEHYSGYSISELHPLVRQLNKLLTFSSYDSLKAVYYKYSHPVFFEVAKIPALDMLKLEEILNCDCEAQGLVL
Variant	normalised enrichment score
V3Q	0.15
F8D	-0.531
A9I	2.77
K4T	0.341

Single results of other studies
HLA class I histocompatibility antigen, B alpha chain allele B*46:01: HLA class I histocompatibility antigen, B alpha chain, allele B*46:01 (Homo sapiens, UniProt P01889)
Substance	target	test	system	setting	measurement	result
YTNVVPLVY	HLA class I histocompatibility antigen, B alpha chain allele B*46:01	peptide-MHC binding	peptide	concentration not given	binding	active
CCCOc1ccc([C@H]2[C@H](C(=O)O)[C@@H](c3ccc4c(c3)OCO4)CN2CC(=O)Nc2c(CC)cccc2CC)cc1	Serine/threonine-protein kinase PknB (pknB, Mycobacterium tuberculosis, UniProt P9WI81)	cell-free assay, competition with immobilised ligand	–	1 µM	remaining binding	78%
KTDEVVTL	HLA class I histocompatibility antigen, B alpha chain allele B*46:01	peptide-MHC binding	peptide	concentration not given	binding	inactive
C[C@@H](N)[C@@H](O)c1ccccc1 (racemic)	Beta-1 adrenergic receptor (ADRB1, Homo sapiens, UniProt P08588)	agonist	–	–	Emax	107%

For quick reference, copied from above (sample 1):
Variant	normalised enrichment score
A9I	2.77
